Measurements of several laboratories.
Lines come from different studies, so protocols differ. Numbers after ± are the reported error.

| Compound | test | test system | conditions | how to read | quantity | value |
| --- | --- | --- | --- | --- | --- | --- |
| CSCC[C@H](NC(=O)CNC(=O)[C@H](CCCCN)NC(=O)[C@H](CC(C)C)NC(=O)[C@@H]1CCCN1C(=O)[C@H](CO)NC(=O)[C@H](Cc1c[nH]cn1)NC(=O)[C@H](Cc1c[nH]c2ccccc12)NC(=O)[C@H](CCCNC(=N)N)NC(=O)[C@H](CC(C)C)NC(=O)[C@H](CCCNC(=N)N)NC(=O)[C@H](Cc1c[nH]c2ccccc12)NC(=O)[C@H](CS)NC(=O)CCCCCNC(=O)CN1CCN(CC(=O)O)CCN(CC(=O)O)CCN(CC(=O)O)CC1)C(=O)O [copper-64 labelled] | – | BALB/c nude mouse, Huh-7 tumour, tumour and blood | intravenous, 1.85 MBq, 6 h, ex vivo biodistribution | reference: tumour over blood | tumour-to-blood ratio | 5.39 |
| NC1CCN(C(=O)Oc2ccc(C3CCCC4(C3)OOC3(O4)C4CC5CC(C4)CC3C5)cc2)CC1 (racemic) | – | male Sprague-Dawley rat, plasma | intravenous, 10 mg/kg | – | C0 | 2210 ng/mL |
| CCN(CC)CCOc1ccc(-c2nnn(Cc3ccc(OC)cc3)c2N)cc1 | – | Sprague-Dawley rat | oral, once daily, 4 weeks | – | STD10 | 100 mg/kg |
| CC(C)C[C@H](NC(=O)[C@H](Cc1ccc(O)cc1)NC(=O)[C@H](Cc1c[nH]cn1)NC(=O)[C@H](CCCCN)NC(=O)[C@H](CC(C)C)NC(=O)[C@H](C)NC(=O)[C@H](CC(C)C)NC(=O)[C@H](CCCCN)NC(=O)CNC(=O)[C@@H](NC(=O)[C@@H](NC(=O)[C@H](CCCCN)NC(=O)[C@@H](NC(=O)[C@H](CCC(=O)O)NC(=O)[C@H](C)NC(=O)[C@H](CCCCN)NC(=O)[C@H](CCCCN)NC(=O)[C@H](CC(C)C)NC(=O)[C@H](CC(C)C)NC(=O)[C@@H](NC(=O)[C@H](CCCNC(=N)N)NC(=O)[C@H](Cc1c[nH]c2ccccc12)NC(=O)CN)[C@@H](C)O)C(C)C)[C@@H](C)O)C(C)C)C(N)=O | – | zebrafish embryos 28 hpf, E3 medium | 24 h | – | chronic toxic concentration | 25 µM |
| O=C1NC2(CC2)COc2ncc(F)cc2[C@H]2COCCN2c2ccn3ncc1c3n2 | – | Sprague-Dawley rat, female, plasma | oral, 2.5 mg/kg/day, end of treatment, 4-week repeated-dose toxicity | – | prothrombin time | 8.2 ± 0.2 s |
| CCCCCCCC(=O)N[C@@H](CCCNC(=N)N)C(=O)N[C@@H](Cc1c[nH]c2ccccc12)C(=O)N[C@@H](CCCCN)C(=O)N[C@H](C(=O)N[C@@H](Cc1ccccc1)C(=O)N[C@@H](CCCCN)C(=O)N[C@@H](CCCCN)C(=O)N[C@H](C(=O)N[C@@H](CCC(=O)O)C(=O)N[C@@H](CCCCN)C(=O)N[C@H](C(=O)NCC(=O)N[C@@H](CCC(N)=O)C(=O)N[C@@H](CC(N)=O)C(=O)N[C@H](C(=O)N[C@@H](CCCNC(=N)N)C(=O)N[C@@H](CC(=O)O)C(=O)NCC(=O)N[C@H](C(=O)N[C@H](C(=O)N[C@@H](CCCCN)C(=O)N[C@@H](C)C(=O)NCC(=O)N1CCC[C@H]1C(=O)N[C@@H](C)C(=O)N[C@H](C(=O)N[C@@H](C)C(=O)N[C@H](C(=O)N[C@H](C(=O)NCC(=O)N[C@@H](CCC(N)=O)C(=O)N[C@@H](C)C(=O)N[C@@H](C)C(=O)N[C@H](C(=O)N[C@H](C(N)=O)[C@@H](C)CC)[C@@H](C)O)C(C)C)C(C)C)C(C)C)C(C)C)[C@@H](C)CC)[C@@H](C)CC)C(C)C)[C@@H](C)CC)[C@@H](C)CC | CD spectroscopy | 50% TFE in water | room temperature | – | helical content | 38.6% |
| N#[11C]c1ccc(-c2csc(NN=C3CCCC3)n2)cc1 | – | C57BL/6 mice, male, lung | intravenous, 3 MBq, 5 min | – | radioactivity uptake | 7.74 ± 0.16 %ID/g |
| CCCCCCCCCCCCCCCC(=O)N[C@@H](CCC(=O)NCCOCCOCCC(=O)NCCOCCOCCC(=O)NCCCC[C@H](NC(=O)[C@H](CC(=O)O)NC(=O)[C@H](CC(C)C)NC(=O)[C@H](Cc1ccc(O)cc1)NC(=O)[C@H](CCCCN)NC(=O)[C@H](CO)NC(=O)[C@H](Cc1ccc(O)cc1)NC(=O)[C@H](CC(=O)O)NC(=O)[C@H](CO)NC(=O)[C@@H](NC(=O)[C@H](Cc1ccccc1)NC(=O)[C@@H](NC(=O)CNC(=O)[C@H](CCC(N)=O)NC(=O)[C@@H](CO)NC(=O)[C@@H](N)Cc1c[nH]cn1)[C@@H](C)O)[C@@H](C)O)C(=O)N[C@@H](CCCNC(=N)N)C(=O)N[C@@H](CCCNC(=N)N)C(=O)N[C@@H](C)C(=O)N[C@@H](CCC(N)=O)C(=O)N[C@@H](CC(=O)O)C(=O)N[C@@H](Cc1ccccc1)C(=O)N[C@H](C(=O)N[C@@H](CCC(N)=O)C(=O)N[C@@H](Cc1c[nH]c2ccccc12)C(=O)N[C@@H](CC(C)C)C(=O)N[C@@H](CC(C)C)C(=O)N[C@@H](CC(N)=O)C(=O)N[C@H](C(=O)NCC(=O)NCC(=O)N1CCC[C@H]1C(=O)N[C@@H](CO)C(=O)N[C@@H](CO)C(=O)NCC(=O)N[C@@H](C)C(=O)N1CCC[C@H]1C(=O)N1CCC[C@H]1C(=O)N1CCC[C@H]1C(=O)N[C@@H](CO)C(N)=O)[C@@H](C)O)C(C)C)C(=O)O | item: AST | rhesus monkey, male | subcutaneous, 20 µg/kg once daily, 28 days | – | serum enzyme activity | 37.6 ± 5.9 U/L |
| COC(=O)[C@H]1[C@@H](c2ccc(Cl)c(Cl)c2)C[C@@H]2CC[C@H]1N2CCCc1c2ccccc2cc2ccccc12 | fluorometric titration | – | 1 µM, 10% DMSO | – | pKa | 5.8 |
| CC(C)[C@H](NC(=O)[C@@H](NC(=O)[C@H](CCCNC(=N)N)NC(=O)[C@H](CCCNC(=N)N)NC(=O)[C@H](CCCNC(=N)N)NC(=O)[C@H](CCC(N)=O)NC(=O)[C@H](CCCNC(=N)N)NC(=O)[C@H](CCCNC(=N)N)NC(=O)[C@H](CCCCN)NC(=O)[C@H](CCCCN)NC(=O)[C@H](CCCNC(=N)N)NC(=O)CN)[C@@H](C)O)C(=O)N[C@H](C(=O)N[C@@H](CO)C(=O)N1CCC[C@H]1C(=O)O)[C@@H](C)O | – | ICR mice, female, heart | intranasal, 20 mg/kg daily, 4 weeks | – | organ weight | 0.188 ± 0.021 g |
| CC(C)=CCC/C(C)=C/CCn1cc(CC(P(=O)(O)O)P(=O)(O)O)nn1 | – | mouse CD-1 | intravenous, 0.3 mg/kg, 8 h | reference: dose | biliary excretion | 1.27% |
| CC[C@H](C)[C@H](NC(=O)[C@H](C)NC(=O)[C@H](CCCCN)NC(=O)[C@H](CCCCN)NC(=O)[C@@H](N)CCCNC(=N)N)C(=O)N[C@@H](CCCCN)C(=O)N[C@@H](CC(C)C)C(=O)N[C@H](C(=O)N[C@@H](CCCCN)C(=O)N[C@@H](CCCCN)C(=O)N[C@@H](CC(C)C)C(=O)N[C@H](C(=O)N[C@@H](CCCCN)C(=O)N[C@@H](CCCCN)C(=O)N[C@@H](CC(C)C)C(=O)N[C@@H](CCCCN)C(=O)N[C@@H](CCCCN)C(=O)N[C@@H](C)C(=O)N[C@@H](CC(C)C)C(=O)N[C@@H](CCCCN)C(=O)O)C(C)C)C(C)C | – | human red blood cells | 4 mg/L, 1 h | – | hemolysis | 1.24% |
| CC[C@H](C)[C@H](NC(=O)[C@H](CCCCN)NC(=O)CNC(=O)[C@H](CC(C)C)NC(=O)[C@H](Cc1ccccc1)NC(=O)[C@H](CCCCN)NC(=O)[C@H](CO)NC(=O)[C@H](Cc1ccccc1)NC(=O)[C@H](Cc1c[nH]c2ccccc12)NC(=O)[C@H](CCC(N)=O)NC(=O)[C@@H](NC(=O)[C@H](Cc1ccccc1)NC(=O)CCCCCNC(=O)CN1CCN(CC(=O)O)CCN(CC(=O)O)CCN(CC(=O)O)CC1)C(C)C)C(=O)N[C@@H](CCC(=O)O)C(=O)N1CCC[C@H]1C(=O)N[C@@H](CC(=O)O)C(=O)N[C@H](C(=O)N[C@@H](CO)C(=O)N[C@@H](CCC(N)=O)C(=O)N[C@H](C(=O)N[C@@H](CCC(N)=O)C(=O)N[C@@H](CC(=O)O)C(=O)N1CCC[C@H]1C(=O)N[C@@H](CC(N)=O)C(=O)N[C@@H](CC(=O)O)C(=O)N[C@@H](CCC(N)=O)C(=O)N[C@@H](Cc1ccc(O)cc1)C(=O)N[C@@H](CCC(=O)O)C(=O)N1CCC[C@H]1C(=O)N[C@@H](Cc1ccccc1)C(=O)O)C(C)C)C(C)C [copper-64 labelled] | dynamic PET | mouse both sexes, CT26 tumour, checkpoint inhibitor-treated, tumour | intravenous, 100 µCi/mouse, 690 s | – | SUVmean | 3.88 SUV |

Excerpt of the above:
| Compound | test | test system | conditions | how to read | quantity | value |
| --- | --- | --- | --- | --- | --- | --- |
| CCCCCCCCCCCCCCCC(=O)N[C@@H](CCC(=O)NCCOCCOCCC(=O)NCCOCCOCCC(=O)NCCCC[C@H](NC(=O)[C@H](CC(=O)O)NC(=O)[C@H](CC(C)C)NC(=O)[C@H](Cc1ccc(O)cc1)NC(=O)[C@H](CCCCN)NC(=O)[C@H](CO)NC(=O)[C@H](Cc1ccc(O)cc1)NC(=O)[C@H](CC(=O)O)NC(=O)[C@H](CO)NC(=O)[C@@H](NC(=O)[C@H](Cc1ccccc1)NC(=O)[C@@H](NC(=O)CNC(=O)[C@H](CCC(N)=O)NC(=O)[C@@H](CO)NC(=O)[C@@H](N)Cc1c[nH]cn1)[C@@H](C)O)[C@@H](C)O)C(=O)N[C@@H](CCCNC(=N)N)C(=O)N[C@@H](CCCNC(=N)N)C(=O)N[C@@H](C)C(=O)N[C@@H](CCC(N)=O)C(=O)N[C@@H](CC(=O)O)C(=O)N[C@@H](Cc1ccccc1)C(=O)N[C@H](C(=O)N[C@@H](CCC(N)=O)C(=O)N[C@@H](Cc1c[nH]c2ccccc12)C(=O)N[C@@H](CC(C)C)C(=O)N[C@@H](CC(C)C)C(=O)N[C@@H](CC(N)=O)C(=O)N[C@H](C(=O)NCC(=O)NCC(=O)N1CCC[C@H]1C(=O)N[C@@H](CO)C(=O)N[C@@H](CO)C(=O)NCC(=O)N[C@@H](C)C(=O)N1CCC[C@H]1C(=O)N1CCC[C@H]1C(=O)N1CCC[C@H]1C(=O)N[C@@H](CO)C(N)=O)[C@@H](C)O)C(C)C)C(=O)O | item: AST | rhesus monkey, male | subcutaneous, 20 µg/kg once daily, 28 days | – | serum enzyme activity | 37.6 ± 5.9 U/L |
